Measurements gathered from unrelated publications.
Parts stem from different laboratories: compare values within a part only. Changes are numbered by the printed parent chain.

Series 1
Target: ABI1, truncated, D143A, DHFR fusion (Arabidopsis thaliana)
Technique: DHFR PCA, deep sequencing
Medium: yeast
Setting: methotrexate growth selection, single substitutions
Added: (+)-ABA 0.0091 µM
Reference: wild-type fitted maximum
Reading: higher = stronger binding
Quantity: relative binding score
Starting sequence: PYL1, truncated, DHFR fusion (Arabidopsis thaliana); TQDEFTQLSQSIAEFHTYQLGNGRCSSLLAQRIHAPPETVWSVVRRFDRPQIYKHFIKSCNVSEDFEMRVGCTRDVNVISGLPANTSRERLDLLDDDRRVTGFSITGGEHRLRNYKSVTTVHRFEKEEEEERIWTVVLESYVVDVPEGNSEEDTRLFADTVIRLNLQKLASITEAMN
E4D: 18.3%
N22G: 22.4%
F5G: 1.61%
I57S: 0.979%
F15C: -1.65%
D144G: 2.34%
V100G: -7.13%
E125H: 40.4%
L112C: -4.49%
R163V: -1.44%
G23T: -0.196%
R88T: 43.8%
I79M: 13.2%
E151P: 45.2%
S59M: -3.36%
N77S: 49.7%
D92E: -0.378%
F157K: 1.7%
R111A: -0.819%
N77W: 20.7%
R90M: -0.993%
R132I: 5.08%

Series 2
Target: UBE2V1 UBC core domain (UniProt Q13404)
Technique: yeast two-hybrid
Medium: yeast
Setting: mostly zero background
Reference: not given
Reading: higher = stronger interaction
Quantity: lacZ reporter activity
B1: RNF170 RING domain (UniProt Q96K19); chain TRQQFYTDMYCPICLHQASFPVETNCGHLFCGACIIAYWRYGSWLGAISCPICRQTVTLLLTVF
B2: RNF25 RING domain (UniProt Q96BH1); chain LTDNNIPHGQCVICLYGFQEKEAFTKTPCYHYFHCHCLARYIQHMEQELKAQGQEQEQERQHATTKQKAVGVQCPVCREPLVYDLASL
B3: UHRF2 RING domain (UniProt Q96PU4); chain CGGDPEKKCHSCSCRVCGGKHEPNMQLLCDECNVAYHIYCLNPPLDKVPEEEYWYCPSCKTDSSEVVKAGER
B4: PHF21A RING domain (UniProt Q96BD5); chain SPTSTDGDIHEDFCSVCRKSGQLLMCDTCSRVYHLDCLDPPLKTIPKGMWICPRCQDQMLKKEEAIPW
B5: TRIM63 RING domain (UniProt Q969Q1); chain PMENLEKQLICPICLEMFTKPVVILPCQHNLCRKCANDIFQAANPYWTSRGSSVSMSGGRFRCPTCRHEVIMDRHGV
B6: IRF2BPL RING domain (UniProt Q9H1B7); chain SPMANSGPLCCTICHERLEDTHFVQCPSVPSHKFCFPCSRESIKAQGATGEVYCPSGEKCPLVGSNVP
B7: ARK2C RING domain (UniProt Q6ZSG1); chain EGEESDTDEKCTICLSMLEDGEDVRRLPCMHLFHQLCVDQWLAMSKKCPICRVDIETQLGAD
B8: TRIM8 RING domain (UniProt Q9BZR9); chain WKNCFEEELICPICLHVFVEPVQLPCKHNFCRGCIGEAWAKDSGLVRCPECNQAYNQKPGLE
B9: TRIM69 RING domain (UniProt Q86WT6); chain VIQDITMELHCPLCNDWFRDPLMLSCGHNFCEACIQDFWRLQAKETFCPECKMLCQYNNCTF
Construct (chain): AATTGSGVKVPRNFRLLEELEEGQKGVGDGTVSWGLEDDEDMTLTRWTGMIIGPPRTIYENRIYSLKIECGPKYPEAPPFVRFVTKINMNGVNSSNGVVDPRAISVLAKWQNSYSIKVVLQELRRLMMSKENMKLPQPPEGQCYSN
RLTMMWEEVTCPICLDPFVEPVSIECGHSFCQECISQVGKGGGSVCPVCRQRFLLKNLRP (TRIM21 RING domain (UniProt P19474)): 0
B1 (RNF170 RING domain): 0
B2 (RNF25 RING domain): 0
B3 (UHRF2 RING domain): 0
B4 (PHF21A RING domain): 0
B5 (TRIM63 RING domain): 0
B6 (IRF2BPL RING domain): 0
DDENSDNSNECVVCLSDLRDTLILPCRHLCLCTSCADTLRYQANNCPICRLPFRALLQIR (MGRN1 RING domain (UniProt O60291)): 0
B7 (ARK2C RING domain): 0
B8 (TRIM8 RING domain): 0
QLRRLQEERTCKVCMDKEVSVVFIPCGHLVVCQECAPSLRKCPICRGIIKGTVRTF (BIRC2 RING domain (UniProt Q13490)): 0
B9 (TRIM69 RING domain): 0
YWAMDSTFELCKICAESNKDVKIEPCGHLLCSCCLAAWQHSDSQTCPFCRCEIKGWEAVS (CBLC RING domain (UniProt Q9ULV8)): 0
KTLSRFGIQPCSICLGDAKDPVCLPCDHVHCLRCLRAWFASEQMICPYCLTALPDEFSPA (RNF213 RING domain (UniProt Q63HN8)): 0
VTLSLTLPITCHICLGKVRQPVICINNHVFCSICIDLWLKNNSQCPACRVPITPENPCK (OBI1 RING domain (UniProt Q5W0B1)): 0
QHHELTSLFECPVCFDYVLPPILQCQAGHLVCNQCRQKLSCCPTCRGALTPSIRNL (SIAH2 RING domain (UniProt O43255)): 0

Series 3
Target: CCND1, cyclin fold, Cln2 fusion (human)
Technique: yeast growth competition, sequencing
Medium: yeast
Setting: weak parent motif
Reference: not given
Reading: higher = stronger binding
Quantity: normalised enrichment score
Starting sequence: RP1L1 docking peptide (human); TLGLGPLSFTLED
TAGLGPLSFTLED [L2A]: 0.401
TLGAGPLSFTLED [L4A]: 0.989
TLGLAPLSFTLED [G5A]: 0.715
TLGLGPLSFALED [T10A]: 0.687
TLGLGALSFTLED [P6A]: 0.588
TLALGPLSFTLED [G3A]: 0.917

Series 4
Target: Sal-like protein 4, full length isoform A (SALL4, Homo sapiens, UniProt Q9UJQ4, residues 1-1053)
Chain of UniProt Q9UJQ4 (whole entry, looked up): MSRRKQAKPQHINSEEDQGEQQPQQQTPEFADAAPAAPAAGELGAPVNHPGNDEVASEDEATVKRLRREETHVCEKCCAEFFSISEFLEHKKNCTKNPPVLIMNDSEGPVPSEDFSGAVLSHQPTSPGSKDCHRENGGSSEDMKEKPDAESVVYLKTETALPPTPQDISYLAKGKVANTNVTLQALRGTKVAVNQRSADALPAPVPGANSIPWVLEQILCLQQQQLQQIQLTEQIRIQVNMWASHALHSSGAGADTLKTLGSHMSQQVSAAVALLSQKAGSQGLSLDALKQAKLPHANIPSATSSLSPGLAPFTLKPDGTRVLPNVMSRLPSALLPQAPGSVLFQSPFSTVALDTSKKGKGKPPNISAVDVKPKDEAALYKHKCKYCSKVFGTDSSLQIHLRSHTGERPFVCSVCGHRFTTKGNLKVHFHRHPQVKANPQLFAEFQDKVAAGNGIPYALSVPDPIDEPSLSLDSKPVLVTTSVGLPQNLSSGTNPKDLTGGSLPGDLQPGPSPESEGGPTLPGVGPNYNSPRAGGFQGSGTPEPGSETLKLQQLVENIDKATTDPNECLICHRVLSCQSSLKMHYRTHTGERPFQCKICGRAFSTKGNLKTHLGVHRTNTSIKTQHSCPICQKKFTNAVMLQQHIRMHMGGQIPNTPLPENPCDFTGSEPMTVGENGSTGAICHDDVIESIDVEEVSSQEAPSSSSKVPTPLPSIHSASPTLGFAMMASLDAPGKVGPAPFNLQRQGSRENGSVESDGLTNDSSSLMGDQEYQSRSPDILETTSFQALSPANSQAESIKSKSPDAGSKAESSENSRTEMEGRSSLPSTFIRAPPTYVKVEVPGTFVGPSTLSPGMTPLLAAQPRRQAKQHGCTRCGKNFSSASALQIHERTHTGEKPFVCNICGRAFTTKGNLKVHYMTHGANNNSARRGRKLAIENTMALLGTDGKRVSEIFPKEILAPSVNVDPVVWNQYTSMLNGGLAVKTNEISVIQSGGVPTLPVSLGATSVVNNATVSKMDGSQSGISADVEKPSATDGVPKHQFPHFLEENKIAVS
Technique: universal PBM
Form: double-stranded DNA, one strand shown
Medium: in vitro
Tested at: 600 nM
Setting: 8-mer, flanks averaged, mean of replicates
Reading: higher = stronger binding
Quantity: E-score
CCTGATAA: 0.141
CTCAAGTC: -0.0784
CCCTGTAG: -0.113
ACACCTAC: 0.0122
ACTCTGAG: -0.0843
ATAGGGCC: -0.217
TGGGCTAA: -0.17
ATAAAAGC: 0.226
AGCCATAA: 0.22
ACCTGAAC: -0.0738
CAGCCGCC: -0.418
CCATGTAA: 0.0644
AAAAAAGG: 0.0531
ATACACCG: -0.0497
ACCGGCAA: -0.329
CGACGTTA: 0.105
GTAGATGA: 0.188
CCACCTGC: -0.287
AGCCCTCG: -0.234
AGTATTTC: 0.191

Series 5
Target: Ras GTPase-activating protein-binding protein 1, RRM domain (G3BP1, Homo sapiens, UniProt Q13283)
Chain of UniProt Q13283 (whole entry, looked up): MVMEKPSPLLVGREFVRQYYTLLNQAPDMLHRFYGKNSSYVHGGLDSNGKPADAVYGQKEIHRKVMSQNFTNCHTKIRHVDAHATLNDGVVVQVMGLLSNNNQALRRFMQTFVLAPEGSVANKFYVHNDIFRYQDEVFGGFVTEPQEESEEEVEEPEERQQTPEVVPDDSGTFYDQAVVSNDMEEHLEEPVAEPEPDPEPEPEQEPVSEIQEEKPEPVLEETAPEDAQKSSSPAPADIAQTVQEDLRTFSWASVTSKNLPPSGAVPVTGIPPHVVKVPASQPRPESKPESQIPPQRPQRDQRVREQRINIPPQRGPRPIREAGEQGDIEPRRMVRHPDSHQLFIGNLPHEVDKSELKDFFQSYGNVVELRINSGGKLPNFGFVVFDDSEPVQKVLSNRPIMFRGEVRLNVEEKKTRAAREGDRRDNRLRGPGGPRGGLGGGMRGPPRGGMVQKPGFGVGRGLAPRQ
Technique: RNA Bind-n-Seq
Form: RNA
Medium: in vitro
Tested at: 1 µM
Setting: whole 134-nt RNA, ends assumed
Added: 150 mM KCl
Reference: input library
Reading: higher = stronger binding
Quantity: log2 enrichment
Constant ends, left off below: GGGAGUUCUACAGUCCGACGAUC … UGGAAUUCUCGGGUGUCAAGG
UCAAGUCCUGUGCUACACAUCGUAUGUACCGAAUCGGGAAAGGGAGGGUUUGGGAAAGUAUUAUGUUACGCCGUUCGGAUCUGCACUUCC: 0.687
CACAGACAACACGCACCCACACAGACACAGAGGGAAGGGGUUGGGAUGGGGACAGGGUGCGCAGCAGGGCGGGGUAGGACCCCAGCCCCU: -0.202
CUCAGCAGACCCUGAAGGACACUUUGAGACACCAAUCUGGAUUGAGCGGGUGGUGAUAAUAGGGGCUGGAAAGCCAGCAGCUGUGGUACU: -0.033
UCCUCAAGUCCUGUGCUACACAUCGUAUGUACCGAAUCGGGAGGGAGGAGGAAAGUAUUAUGUUACGCCGUUCGGAUCUGCACUUCCAGC: -0.253
UCAAGUCCUGUGCUACACAUCGUAUGUACCGAAUCGGUUUUUGGAAAGGAAAGGAAAGUAUUAUGUUACGCCGUUCGGAUCUGCACUUCC: -0.134
UGCUGUGCAGCGGCAUCGGCCCACUGUGGUGGAAUGUCUACGGGAAACUGAUGCCUCCCUCAGCCGGUGAGCAGUGAUAGAGGGGACAGG: -0.566
UAACUUUAGAGGAGGAUCUGAUGGAUAUGGCAGUGGACGUGGAUUUGGGGAUGGCUAUAAUGGGUAUUGAGGAGGACCUGGAGGUGGCAA: -0.425
UCCUCAAGUCCUGUGCUACACAUCGUAUGUACCGAAUCGGAGGAAAGGAGGAAAGUAUUAUGUUACGCCGUUCGGAUCUGCACUUCCAGC: -0.206
CUCAAGUCCUGUGCUACACAUCGUAUGUACCGAAUCGGGAAGGAAGGGAAGGGGAAAGUAUUAUGUUACGCCGUUCGGAUCUGCACUUCC: 0.0956
AGUCCUGUGCUACACAUCGUAUGUACCGAAUCAAACCCCCAAACCCAAAUUUUUAAAAAAGUAUUAUGUUACGCCGUUCGGAUCUGCACU: -0.128
UCAAGUCCUGUGCUACACAUCGUAUGUACCGAAUCGGUUUUUGGUUUGGUUUGGAAAGUAUUAUGUUACGCCGUUCGGAUCUGCACUUCC: -0.247
UAACUUUAGAGGAGGAUCUGAUGGAUAUGGCAGUGGACGGGGAUUUGGGGAUGGCUAUAAUGGGUAUGGAGGAGGACCUGGAGGUGGCAA: -0.513
CCUCAAGUCCUGUGCUACACAUCGUAUGUACCGAAUCGGUUUGGAAAGGUGGAAAGUAUUAUGUUACGCCGUUCGGAUCUGCACUUCCAG: -0.209
UACCAAUUGGCCUUUAUUGACUGUAUCCAAAGGAUUUUUUGAAGGCACCAUUGCCAGCAAAGGUAAGUACCUAUUUCUCCCAUAGCACUU: -0.215

Repeated from above (series 4):
ATAGGGCC: -0.217
TGGGCTAA: -0.17
ATAAAAGC: 0.226
AGCCATAA: 0.22
ACCTGAAC: -0.0738
CAGCCGCC: -0.418
CCATGTAA: 0.0644
AAAAAAGG: 0.0531
ATACACCG: -0.0497
ACCGGCAA: -0.329
CGACGTTA: 0.105
GTAGATGA: 0.188
CCACCTGC: -0.287
